{"data": "Experimental data from different studies", "note": "Each line is one published result; not all experiments were run side by side. “And” joins repeats or separate records; there may be more than shown. Numbers after ± are the reported error."}
{"SMILES": "C[C@@H](O)[C@H](NC(=O)[C@@H]1CSSC[C@H](NC(=O)[C@@H](Cc2ccccc2)NC(=O)CN2CCN(CC(N)=O)CCN(CC(N)=O)CCN(CC(N)=O)CC2)C(=O)N[C@@H](Cc2ccc(O)cc2)C(=O)N[C@H](Cc2c[nH]c3ccccc23)C(=O)N[C@@H](CCCCN)C(=O)N[C@@H]([C@@H](C)O)C(=O)N1)C(=O)O [lead-212 labelled]", "test system": "mice, AR-42J tumour model", "conditions": "single injection of 5 µCi", "measurement": "median survival", "result": "6.3 weeks"}
{"SMILES": "C[C@]12CC[C@H](O)CC1CCC1C2[C@H](O)C(=O)[C@]2(C)[C@@H](c3ccc(=O)oc3)CC[C@]12O (some centres unmarked)", "assay": "sulfation, substrate", "test system": "pooled human liver cytosol", "measurement": "Vmax", "result": "0.069 ± 0.001 nmol/min/mg"}
{"SMILES": "CCN(Cc1ccccc1)C(=O)CCc1nc(CN2CCN(C(=O)Cc3ccc(OC)c(OC)c3)CC2)no1", "assay": "current clamp", "test system": "L4-L6 DRG neurons, rat CCI model", "conditions": "3 µM, with: 500 pA current injection", "measurement": "action potential amplitude", "result": "99 ± 1.3 mV"}
{"SMILES": "COc1cc(C(Oc2ccc(C[C@H](N)C(=O)N[C@H](C)C(=O)NCC(=O)N(C)[C@@H](Cc3ccccc3)C(=O)NCCO)cc2)C(=O)O)c([N+](=O)[O-])cc1OC (some centres unmarked)", "test system": "mouse", "conditions": "intra-VTA infusion, 0.5 µL, 200 µM, with: 375 nm light uncaging", "measurement": "duration of velocity increase", "result": "> 25 min"}
{"SMILES": "CCOP(=O)(OCC)OCCCCOC(=O)CC1=C(C)/C(=C/c2ccc([S+](C)[O-])cc2)c2ccc(F)cc21 (centres unmarked)", "test system": "rat, adjuvant-induced arthritis", "conditions": "topical, 50 mg/kg once daily, prevention protocol, PSH vehicle", "scale": "relative to: vehicle, direction not given", "measurement": "clinical score reduction", "result": "65% and 56%"}
{"SMILES": "Cc1cc(O)cc(C)c1CC(N)C(=O)NC1CCNc2c(CCc3ccccc3)cc(Cc3ccccc3)cc21 (centres unmarked)", "assay": "warm water tail withdrawal", "test system": "male C57BL/6 mice", "conditions": "intraperitoneal, 10 mg/kg", "measurement": "antinociception", "result": "inactive"}
{"SMILES": "CC(C)C[C@@H]1NC(=O)[C@H](C(C)C)NC(=O)[C@H](CO)NC(=O)CNC(=O)CNC(=O)[C@H](CCCNC(=N)N)NC(=O)[C@@H]2CCCN2C(=O)[C@@H](NC(=O)CC[C@H](NC(=O)c2ccc(N(C)Cc3cnc4nc(N)nc(N)c4n3)cc2)C(=O)O)C(C)(C)SSC[C@@H](C(=O)O)NC(=O)CNC(=O)[C@H]([C@@H](C)O)NC(=O)[C@H](C(C)C)NC1=O", "test system": "rat adjuvant arthritis", "conditions": "iv, 0.05 mg/kg once daily, day 14", "measurement": "spleen weight", "result": "0.452 ± 0.0139 g"}
{"SMILES": "Cc1ccc(/C=C/C(=O)O)cc1-c1cc2c(cc1C)C(C)(C)CCC2(C)C", "assay": "RNA sequencing, measured: Mta2", "test system": "rat, brain", "conditions": "dose not given, 24 h", "scale": "relative to: vehicle", "measurement": "log2 fold change", "result": -0.1}
{"SMILES": "COC[C@@H](NC(C)=O)C(=O)NCc1ccc(OCc2cccc(F)c2)cc1", "assay": "formalin test, phase I", "test system": "mouse", "conditions": "ip, 9.0 mg/kg", "scale": "relative to: vehicle", "measurement": "licking time", "result": "39%"}
{"SMILES": "COc1ccc(F)cc1S(=O)(=O)Nc1cnc2c(c1)C(=O)NCCO2", "assay": "measured: pyridoxal 5'-phosphate", "test system": "C57BL/6J mouse", "conditions": "oral, 1 or 10 mg/kg, first 6 h", "scale": "relative to: vehicle", "measurement": "plasma PLP level", "result": "increased"}
{"SMILES": "Cc1cc(O)c(I)c(C)c1C[C@H](N)C(=O)N[C@H](C)C(=O)N[C@@H](Cc1ccccc1)C(=O)N[C@@H](Cc1ccccc1)C(N)=O", "assay": "tail flick", "test system": "C57BL/6 mice", "conditions": "intracerebroventricular", "measurement": "analgesic ED50", "result": "1.15 µg"}
{"SMILES": "CC[C@H](C)[C@H](NC(=O)[C@@H](NC(=O)[C@H](CC(=O)O)NC(C)=O)[C@@H](C)O)C(=O)N[C@@H](CCCNC(=N)N)C(=O)N[C@@H](CC(C)C)C(=O)N[C@@H](CC(C)C)C(=O)N[C@@H](Cc1ccccc1)C(=O)N[C@@H](CCC(N)=O)C(=O)N[C@@H](CC(C)C)C(=O)N[C@@H](CCSC)C(=O)N[C@@H](CCCNC(=N)N)C(=O)N1CCC[C@H]1C(=O)N1CCC[C@H]1C(=O)N[C@@H](CC(N)=O)C(=O)N[C@@H](CCSC)C(=O)N[C@H](C(=O)N1CCC[C@H]1C(=O)N[C@@H](C)C(=O)N[C@H](C(=O)N[C@@H](CC(N)=O)C(=O)N[C@@H](C)C(N)=O)C(C)C)[C@@H](C)O", "assay": "measured: HA-19 tetramer", "test system": "antigen-experienced tetramer+ CD4 T cells, healthy adults, HLA-DRB1*0101", "conditions": "dose not given", "measurement": "α4β7− CCR9− cells", "result": "64%"}
{"SMILES": "CN(C)CCN(Cc1ccccc1)C(=O)c1cc(-c2ccc(F)cc2)n2nc(C(C)(C)C)cc2n1", "test system": "Tg6799 mouse, cortex", "conditions": "dose not given, 4 months", "scale": "relative to: cortex", "measurement": "CAA area", "result": "0.025 ± 0.006%"}
{"SMILES": "CS(C)(=O)=Nc1ccc(-c2ccc(-c3nc4cc(O[C@@H]5CO[C@H]6[C@@H]5OC[C@H]6O)[nH]c4cc3F)cc2)cc1", "test system": "ob/ob mouse, AMLN diet NASH model", "conditions": "oral, 5 mg/kg daily, 8 weeks", "scale": "relative to: vehicle", "measurement": "plasma transaminases", "result": "decreased"}
{"SMILES": "COC[C@@H](NC(C)=O)C(=O)NCc1ccc(OCc2ccccc2F)cc1", "assay": "formalin test, phase I", "test system": "mouse", "conditions": "ip, 7.0 mg/kg", "scale": "relative to: vehicle", "measurement": "licking time", "result": "69%"}
{"SMILES": "CC[C@H](C)[C@H](NC(=O)[C@H](C)NC(=O)CNC(=O)[C@@H](N)CCSC)C(=O)N[C@@H](C)C(=O)N[C@@H](CCCCN)C(=O)N[C@@H](CC(C)C)C(=O)N[C@H](C(=O)N[C@@H](C)C(=O)N[C@@H](CCCCN)C(=O)N[C@@H](Cc1ccccc1)C(=O)NCC(=O)N[C@@H](Cc1c[nH]c2ccccc12)C(=O)N1CCC[C@H]1C(=O)N[C@@H](Cc1ccccc1)C(=O)N[C@H](C(=O)N[C@@H](CCCCN)C(=O)N[C@@H](CCCCN)C(=O)N[C@@H](Cc1ccccc1)C(=O)N[C@@H](Cc1ccc(O)cc1)C(=O)N[C@@H](CCCCN)C(=O)N[C@@H](CCC(N)=O)C(=O)N[C@H](C(=O)N[C@@H](CCSC)C(=O)N[C@@H](CCC(N)=O)C(=O)N[C@@H](Cc1ccccc1)C(=O)N[C@H](C(=O)NCC(=O)N[C@@H](CCC(N)=O)C(=O)NCC(=O)N[C@@H](Cc1c[nH]c2ccccc12)C(=O)N[C@H](C(=O)N[C@H](C(=O)N[C@@H](CC(=O)O)C(=O)N[C@@H](CCC(N)=O)C(=O)N[C@H](C(=O)N[C@@H](CCC(=O)O)C(=O)N[C@@H](CCCCN)C(=O)N[C@@H](Cc1c[nH]c2ccccc12)C(=O)N[C@@H](CCCNC(=N)N)C(=O)N[C@@H](CCCCN)C(=O)N[C@@H](CCCNC(=N)N)C(=O)N[C@@H](Cc1c[nH]cn1)C(=O)O)[C@@H](C)CC)[C@@H](C)CC)[C@@H](C)O)[C@@H](C)CC)[C@@H](C)CC)[C@@H](C)CC)C(C)C", "test system": "PG/PE 1:1 liposomes", "conditions": "MIC", "scale": "relative to: Triton X-100", "measurement": "calcein release", "result": "25.6 ± 1.4%"}
{"SMILES": "CC[C@H](C)[C@H](NC(=O)[C@H](Cc1c[nH]c2ccccc12)NC(=O)[C@H](CCCNC(=N)N)NC(=O)[C@H](CCCCN)NC(=O)[C@H](CC(C)C)NC(=O)[C@H](CC(=O)O)NC(=O)[C@H](Cc1ccccc1)NC(=O)[C@H](C)NC(=O)[C@H](Cc1ccc(O)cc1)NC(=O)[C@H](CC(N)=O)NC(=O)[C@H](Cc1ccc(O)cc1)NC(=O)[C@H](CCCNC(=N)N)NC(=O)[C@H](Cc1ccc(O)cc1)NC(=O)[C@H](Cc1ccc(O)cc1)NC(=O)[C@@H](NC(=O)[C@H](CC(C)C)NC(=O)[C@H](C)NC(=O)[C@H](CC(N)=O)NC(=O)[C@H](Cc1ccc(O)cc1)NC(C)=O)[C@@H](C)CC)C(=O)N[C@@H](Cc1ccc(O)cc1)C(=O)N[C@@H](CC(C)C)C(N)=O", "assay": "measured: HA-15 tetramer", "test system": "antigen-experienced tetramer+ CD4 T cells, healthy adults, HLA-DRB1*0101", "conditions": "dose not given", "measurement": "α4β7− CCR9+ cells", "result": "0%"}
{"SMILES": "Cc1cc(O)cc(C)c1CC(N)C(=O)NC1CCNc2c(CN3CCCCC3)cc(Cc3ccccc3)cc21 (centres unmarked)", "assay": "warm water tail withdrawal", "test system": "male C57BL/6 mice", "conditions": "intraperitoneal, 10 mg/kg", "measurement": "antinociception", "result": "inactive"}
{"SMILES": "CC[C@H](C)[C@H](NC(=O)[C@H](CCCNC(=N)N)NC(=O)[C@H](CCC(N)=O)NC(=O)[C@H](CC(=O)O)NC(=O)[C@H](CC(C)C)NC(=O)[C@H](CC(C)C)NC(=O)[C@H](CC(N)=O)NC(=O)[C@H](Cc1ccccc1)NC(=O)[C@H](CC(=O)O)NC(=O)[C@@H](NC(=O)[C@@H](NC(=O)[C@H](CC(N)=O)NC(=O)CNC(=O)[C@H](CO)NC(C)=O)C(C)C)[C@@H](C)CC)C(=O)N[C@H](C(=O)N[C@@H](Cc1c[nH]c2ccccc12)C(=O)N[C@@H](CCC(N)=O)C(=O)N[C@@H](CC(N)=O)C(=O)N[C@@H](Cc1c[nH]c2ccccc12)C(=O)N[C@@H](Cc1ccc(O)cc1)C(=O)N[C@@H](C)C(N)=O)[C@@H](C)CC", "assay": "measured: HA-52 tetramer", "test system": "antigen-experienced tetramer+ CD4 T cells, healthy adults, HLA-DRB1*0101", "conditions": "dose not given", "measurement": "α4β7− CCR9− cells", "result": "27.8%"}
{"SMILES": "O=C1N[C@@H](Cc2ccccc2)C(=O)N2CCC[C@@H]2C(=O)N[C@@H](Cc2ccccc2)C(=O)N[C@H]1Cc1c[nH]c2ccccc12", "assay": "agonist", "test system": "C57BL/6J mouse", "conditions": "10 nmol", "measurement": "duration of antinociceptive activity", "result": "≤ 100 min"}
{"note": "For quick reference, copied from above:"}
{"SMILES": "Cc1cc(O)cc(C)c1CC(N)C(=O)NC1CCNc2c(CCc3ccccc3)cc(Cc3ccccc3)cc21 (centres unmarked)", "assay": "warm water tail withdrawal", "test system": "male C57BL/6 mice", "conditions": "intraperitoneal, 10 mg/kg", "measurement": "antinociception", "result": "inactive"}
